# Results pooled from the literature.
# Effect on: cell growth or viability
SMILES,cell line,test,conditions,measurement,value
CCNc1nc(Nc2cc(F)c(C(=O)N3CCOCC3)cc2OC)ncc1C(F)(F)F,HD-MB03,,7 days,IC50,> 10 µM
CC(=NNC(=S)Nc1ccccc1)c1ccc(Nc2nnc(-c3ccc(Cl)cc3)c3ccccc23)cc1,MCF7,MTT,5 µM,cell death,92.8%
Cc1nc2c(c(O)c1Cl)-c1ccc(Oc3cccc(C(F)(F)F)c3)cc1C2=O,HEK293,,,IC50,> 10 µM
C[C@]1(c2nc3c(C(N)=O)cccc3[nH]2)CCCN1,MB002,,7 days,IC50,> 10 µM
Cc1n[nH]c2ccc3nc(-c4ccc(C(=O)NCCN(C)C)cc4F)c4c(c3c12)CCCC4,Kasumi 1,,72 h,GI50,47 nM
CC(=NNC(=O)c1ccccc1Cl)c1ccc(Nc2nnc(-c3ccc(Cl)cc3)c3ccccc23)cc1,MCF7,MTT,"10 µM, 24 h",viability,4.69%
NCc1ccc(-c2nn(Cc3ccccc3)c3ccccc23)o1,RBE,ATP luminescence,"46 µM, 72 h",inhibition,70%
CCc1c(C)c2ccc(OCC=Cc3ccccc3)c(C)c2oc1=O,PC-3,MTT,500 µg/mL,viability,6.77%
CC(=NNC(=O)c1ccccc1O)c1ccc(Nc2nnc(-c3ccc(Cl)cc3)c3ccccc23)cc1,MCF7,MTT,10 µM,cell death,94.7%
Cc1[nH]c(C)c(-c2ccc(S(=O)(=O)c3ccc(Cl)cc3)cc2)c(=O)c1Cl,HEK293,,,IC50,> 10 µM
CN(C)C1CCN(C(=O)/C=C/c2nn(CC3CCCC3)c3ncnc(N)c23)CC1,FLO-1,resazurin,5 days,EC50,> 30 µM
CCN(Cc1ccncc1)c1ccc(CO)c(Cl)c1,RBE,ATP luminescence,"46 µM, 72 h",inhibition,83%
CC(=NNC(=O)c1ccc(N)cc1)c1ccc(Nc2nnc(-c3ccc(Cl)cc3)c3ccccc23)cc1,MCF7,MTT,10 µM,cell death,92.2%
Cc1cc(NC2CCCC2)nc(Nc2ccccc2)n1,HEK293,,,IC50,> 10 µM
CNC(=O)c1cc(Oc2ccc(NC(=O)Nc3ccc(Cl)c(C(F)(F)F)c3)cc2)ccn1,WM 266-4,MTT,"25 µM, 48 h",viability,43.8%
CC(=NNC(=O)c1ccccc1Br)c1ccc(Nc2nnc(-c3ccc(Cl)cc3)c3ccccc23)cc1,MCF7,MTT,"5 µM, 24 h",viability,6.2%
C[C@@H]1CC[C@@H]([C@](C)(O)CNCc2ccccc2F)[C@H](OCc2ccccc2)C1,HeLa,MTT,"30 µM, 72 h",inhibition,90.4%
S=C(Nc1ccccc1)Nc1ccc(Oc2nnc(-c3ccc(Cl)cc3)c3ccccc23)cc1,MCF7,MTT,0.625 µM,cell death,0.266%
CNc1ncc2c(/C=C/C(=O)N3CCC(c4ccccc4)CC3)nn(CC3CCCC3)c2n1,FLO-1,resazurin,5 days,EC50,> 30 µM
C[C@@H]1CC[C@@H]([C@](C)(O)Cn2cnc3ccccc32)[C@H](OCc2ccccc2)C1,A2780,MTT,"30 µM, 72 h",inhibition,98.3%
CCNC(=S)NNC(=O)COc1ccc2c(C)c(CC)c(=O)oc2c1C,PC-3,MTT,500 µg/mL,viability,8.02%
O=C(Nc1ccc(Oc2nnc(-c3ccc(Cl)cc3)c3ccccc23)cc1)c1cccc([N+](=O)[O-])c1,MCF7,MTT,1.25 µM,cell death,96.4%
COc1ccc(C2CC(=O)C3=C(C2)NC(C)=C(C(=O)OC(C)C)C3c2cccc(O)c2)cc1OC (stereo not drawn),HEK293,,,IC50,> 10 µM
CCc1c(C)c2ccc(OCC(=O)NNC(=S)Nc3ccccc3)c(C)c2oc1=O,PC-3,MTT,62.5 µg/mL,viability,17.9%

# A few entries again:
SMILES,cell line,test,conditions,measurement,value
C[C@@H]1CC[C@@H]([C@](C)(O)Cn2cnc3ccccc32)[C@H](OCc2ccccc2)C1,A2780,MTT,"30 µM, 72 h",inhibition,98.3%
CCNC(=S)NNC(=O)COc1ccc2c(C)c(CC)c(=O)oc2c1C,PC-3,MTT,500 µg/mL,viability,8.02%
